Experimental data collected from several papers.
A part holds a random share of what one study measured.
Chain of UniProt Q14289 (whole entry, looked up): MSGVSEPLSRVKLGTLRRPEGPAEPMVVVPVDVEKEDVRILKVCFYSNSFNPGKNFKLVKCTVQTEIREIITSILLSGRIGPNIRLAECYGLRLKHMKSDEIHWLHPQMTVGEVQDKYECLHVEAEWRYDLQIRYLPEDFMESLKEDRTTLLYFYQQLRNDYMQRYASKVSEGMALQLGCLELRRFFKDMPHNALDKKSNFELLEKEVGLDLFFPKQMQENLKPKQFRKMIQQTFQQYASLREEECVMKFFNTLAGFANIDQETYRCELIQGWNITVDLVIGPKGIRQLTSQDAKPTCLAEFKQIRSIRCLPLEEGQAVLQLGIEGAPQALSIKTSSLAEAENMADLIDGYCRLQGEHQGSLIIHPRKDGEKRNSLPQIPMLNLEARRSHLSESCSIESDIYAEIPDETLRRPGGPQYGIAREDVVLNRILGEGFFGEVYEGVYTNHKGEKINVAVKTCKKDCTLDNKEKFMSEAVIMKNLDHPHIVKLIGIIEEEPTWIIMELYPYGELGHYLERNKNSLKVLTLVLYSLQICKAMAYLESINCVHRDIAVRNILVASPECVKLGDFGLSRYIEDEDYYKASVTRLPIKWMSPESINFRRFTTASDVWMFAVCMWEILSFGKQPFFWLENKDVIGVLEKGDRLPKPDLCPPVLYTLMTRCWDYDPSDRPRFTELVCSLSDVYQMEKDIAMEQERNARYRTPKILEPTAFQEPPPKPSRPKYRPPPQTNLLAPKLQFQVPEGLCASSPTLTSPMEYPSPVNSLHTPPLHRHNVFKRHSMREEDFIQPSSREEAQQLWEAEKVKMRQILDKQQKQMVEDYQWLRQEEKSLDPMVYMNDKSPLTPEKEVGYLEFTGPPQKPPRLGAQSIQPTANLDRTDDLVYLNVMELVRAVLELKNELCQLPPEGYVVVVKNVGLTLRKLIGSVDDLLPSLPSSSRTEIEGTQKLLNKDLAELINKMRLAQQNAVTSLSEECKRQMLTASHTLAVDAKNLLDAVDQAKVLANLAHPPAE

Series 1 — technique: competition protein-binding microarray; molecule type: double-stranded DNA, one strand shown; matrix: in vitro; tested at: 2 µM; with: Cbf1 competitor, 0.05 µM; direction: higher = stronger binding; measurement: fluorescence intensity; shared flanks, not repeated: … GTCTTGATTCGCTTGACGCTGCTG
Target: Phosphate system positive regulatory protein PHO4, full length, GST-tagged (PHO4, Saccharomyces cerevisiae, UniProt P07270, residues 1-312)
Setting: whole 60-bp probe, lowest competitor level
Residues (chain): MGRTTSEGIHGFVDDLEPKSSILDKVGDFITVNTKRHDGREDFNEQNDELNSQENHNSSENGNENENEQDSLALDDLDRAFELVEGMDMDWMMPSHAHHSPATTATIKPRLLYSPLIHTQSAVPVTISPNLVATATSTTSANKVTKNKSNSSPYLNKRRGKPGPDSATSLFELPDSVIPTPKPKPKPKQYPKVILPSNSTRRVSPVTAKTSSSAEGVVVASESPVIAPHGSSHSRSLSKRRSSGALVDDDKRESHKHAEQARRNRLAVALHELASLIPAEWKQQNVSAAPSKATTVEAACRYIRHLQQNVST
CGGGGTTAAGTTTGAGGGGTGGGTGGCTTGCAGCAG: 5580 a.u.
CGGGGTTAAGTTTTTCACGTGTCTTGCTTGCAGCAG: 12700 a.u.
GCTCAAGCTCAAACACACGTGCAAACAAACCCCCAA: 19100 a.u.
GACTCATTTCTTAGTGACGTTGGTGACAGGAATATG: 4740 a.u.
TCCTTATCTATAGGACACGCTGTTATTTTAGTTCAA: 7360 a.u.
AAATTACTAAGTTGTATAGTGGGTGACGCCGTATGA: 4470 a.u.
TGACACCCCCCAACACACGTTCCGCCCACTTTTTTT: 7750 a.u.
GGGCAAAACTATCCGCACGCTGAAACAGGCTGATGA: 7650 a.u.

Series 2 — cell line: yeast with cyclin E2-Cln2 chimera; observed: cell growth; action: binder; technique: competitive growth deep sequencing; molecule type: peptide; tested at: concentration not given; setting: peptide tiling library; direction: direction not given; measurement: growth enrichment score
TTTTSPRTPPPLTVQD: 0.335
PFSENVSAVQKLDFSD: 0.583
LKGRRLVFDN: -0.529
SMTDFYHSKRRLIFSK: -0.607
RVSGLLSWTLSRVLWL: -0.0181
RRRIKLPESDSSED: 1.15
KSKHEEEEWTDDDLVE: 0.639
KRRLDLETDHQY: 0.9

Series 3 — technique: RNAcompete; molecule type: RNA; matrix: in vitro; tested at: 20 nM; setting: 7-mer, probes averaged, single round; relative to: mean of 7-mers; direction: higher = stronger binding; measurement: 7-mer Z-score
Target: PABPC1L2, full length, GST fusion (mouse, UniProt A0ABA7IW68)
Construct (chain): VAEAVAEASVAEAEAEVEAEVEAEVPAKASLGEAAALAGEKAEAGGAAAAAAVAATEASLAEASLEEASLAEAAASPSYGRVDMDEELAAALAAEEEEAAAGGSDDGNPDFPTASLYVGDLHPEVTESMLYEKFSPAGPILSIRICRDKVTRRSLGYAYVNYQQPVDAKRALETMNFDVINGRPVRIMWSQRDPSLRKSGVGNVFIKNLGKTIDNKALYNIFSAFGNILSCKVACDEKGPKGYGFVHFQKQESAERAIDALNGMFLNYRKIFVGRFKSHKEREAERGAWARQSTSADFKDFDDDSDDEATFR
CAGCGUU: -0.179
ACUUGUG: -0.242
GUAGCCG: -0.115
CUCCUCU: -0.329
AACAUGU: 0.505
AGAACGU: -0.0953
GUAAACU: 0.198
UCGUAUG: -0.295

Single results of other studies
CC(C)c1nn(-c2c(Cl)cccc2Cl)c2nc(Cc3ccc(OCCO)cc3)[nH]c(=O)c12
remaining activity (Protein-tyrosine kinase 2-beta (PTK2B, Homo sapiens, UniProt Q14289); enzyme activity, inhibitor; 0.5 µM; relative to: control): 96.1%

Repeated from above (series 3):
CUCCUCU: -0.329
AACAUGU: 0.505
